Experimental data gathered from unrelated publications.
Each numbered part is a random draw from the data of one study; scales do not carry over between parts.

Block 1 — technique: RNA Bind-n-Seq; form: RNA; medium: in vitro; concentration: 200 nM; notes: whole 134-nt RNA, ends assumed; together with: 150 mM LiCl; baseline: input library; reading: higher = stronger binding; measurement: log2 enrichment; all molecules: 7-deaza-guanosine replaces G
Target: Ras GTPase-activating protein-binding protein 1, full length (G3BP1, Homo sapiens, UniProt Q13283)
UniProt Q13283, sequence (whole entry, looked up): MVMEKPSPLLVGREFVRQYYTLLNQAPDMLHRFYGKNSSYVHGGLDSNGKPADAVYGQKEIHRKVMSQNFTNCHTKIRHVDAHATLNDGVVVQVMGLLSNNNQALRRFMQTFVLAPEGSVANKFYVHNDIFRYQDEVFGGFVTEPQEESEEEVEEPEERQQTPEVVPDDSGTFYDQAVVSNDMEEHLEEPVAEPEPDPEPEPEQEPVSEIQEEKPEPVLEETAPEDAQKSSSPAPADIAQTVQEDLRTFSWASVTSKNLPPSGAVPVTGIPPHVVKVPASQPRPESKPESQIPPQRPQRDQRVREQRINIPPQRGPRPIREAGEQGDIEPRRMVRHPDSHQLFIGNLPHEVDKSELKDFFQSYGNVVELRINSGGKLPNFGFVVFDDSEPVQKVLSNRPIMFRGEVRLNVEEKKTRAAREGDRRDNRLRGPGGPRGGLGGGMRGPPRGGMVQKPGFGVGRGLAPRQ
Constant ends, left off below: GGGAGUUCUACAGUCCGACGAUC … UGGAAUUCUCGGGUGUCAAGG
GUCCUGUGCUACACAUCGUAUGUACCGAAUCGGGAAAGGGUUUUUGGGAAAAAAAGGGAAAGUAUUAUGUUACGCCGUUCGGAUCUGCAC: -0.652
CACAGACAACACGCACCCACACAGACACAGAGGGAAGGGGUUGGGAUGGGGACAGGGUGCACAGCAGGGCGGGGUAGGACCACAGCCCCU: -0.307
UGGGAGGUGGAUUUUGUUUAUUUUUUUAGCUCAUUUCCAGGGGUGGGAAUUUUUUUUUAAUAUGUGUCAUGAAUAAAGUUGUUUUUGAAA: -0.324
UCAAGUCCUGUGCUACACAUCGUAUGUACCGAAUCGGUUUUUGGAAAAAGGAGGAAAGUAUUAUGUUACGCCGUUCGGAUCUGCACUUCC: 0.0424
GCAGGAAGUAAAAACAAAUGGAAAUGCUUCGGAAAGUGGCAGGGGUGGGGGUUGCUAAGGAAAGGGUGGGAUGGGAGUGGGUAAAGAGUU: 0.646
UAUUGAUGCAUUUGACCCUACACUGGCUCCAGCCACAGGAACUCCUGUUGUCGGGGGACUAACCUAUCGAGAAGGCAUGUAUAUUGCUGA: 0.334
UCAAGUCCUGUGCUACACAUCGUAUGUACCGAAUCGGGGAAGGGGAAGGAAGGGAAAGUAUUAUGUUACGCCGUUCGGAUCUGCACUUCC: -0.638
UGGCCCUGGUGGCAUACGGGGAGGAAGAGGUGGCCUCAUGGAUCGUGGUGGUCCCGGUGGAAUGUUCAGAGGUGGCCGUGGUGGAGACAG: 0.35
GCAGGAAGUAAAAACAAAUGGAACUGCUUCGGAUAGUGGCAGGGGUGGGGGUUGCUAAGGAAAGGGUGGGAUGGGAGUGGGUAAAGAGUU: -0.0877
GAAACUACCCGUGUGUAAAAAGAAGAUUGGCUUAAAAUGGCUACUGUGAUGGGAACAGUGUCUUAGGGAGAUGCAGCUUGGACUUGAGGU: 0.388
GCAGGAAGUAAAAACAAAUGGAAAUGCUUCGGAUAGUGGCAAAAGUGGGGGUUGCUAAGGAAAGGGUGGGAUGGGAGUGGGUAAAGAGUU: 0.292

Block 2 — technique: RNA Bind-n-Seq; form: RNA; medium: in vitro; concentration: not given; baseline: input RNA pool; reading: higher = stronger binding; measurement: bound/input enrichment
Target: RING finger protein unkempt homolog, zinc fingers 1-6, GST-SBP tag (UNK, Homo sapiens, UniProt Q9C0B0, residues 30-357)
UniProt Q9C0B0, sequence (30-357, looked up): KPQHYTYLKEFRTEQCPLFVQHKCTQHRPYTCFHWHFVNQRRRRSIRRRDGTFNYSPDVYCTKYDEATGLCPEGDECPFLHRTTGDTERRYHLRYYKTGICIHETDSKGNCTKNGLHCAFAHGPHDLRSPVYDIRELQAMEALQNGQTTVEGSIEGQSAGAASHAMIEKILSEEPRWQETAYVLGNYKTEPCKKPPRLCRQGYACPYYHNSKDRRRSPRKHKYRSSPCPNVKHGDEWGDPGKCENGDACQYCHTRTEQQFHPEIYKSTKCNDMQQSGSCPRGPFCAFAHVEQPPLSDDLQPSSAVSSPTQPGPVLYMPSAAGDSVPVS
Notes: RNA with constant flanks, human-mouse chimeric sites, ends assumed
Constant ends, left off below: GGGAGUUCUACAGUCCGACGAUC … CAACAGAGGAUUGAGCAUCA
AAAGAACUACUGAGGCAAGGCAGCAAAUUUAGGAGAGACAUUUCAACAAUAUUGAUAGAGUUAGGAUUCCAAAUUAAAAAGAAAACUAAAAGAUUGUACAUCAACAAAGCCAAUGUGUGG: 7.62 ratio
AAGCAACGCAAACUUGAAACAAUUCGUUAUCUUGCAGCCUCAGUGUUCACUUGCUUGGCGAUAGCAUUGGGGUUUUAUAGGUUCUGGAAGGAGAACUGACGAUGAUGCUGCCGCUGCUGC: 0.168 ratio
ACACAAUAUGAGACCAACAGCAUGGACUUCAAAGUUGGGGCAGAUGGGACAGUCUUCGCCACCCGGGAGUUGAAGAUCCCCUCCGAGCAGGUGGCGUUCACGGUGACUGCAUGGGACAGC: 0.265 ratio
AAAGAAUGGAUAGAGUGUGCACACGGGAUCGGUGGGACCCGGGCGAAGAAAGAGUGCAAGAUAGAGUUCGAUGACUUCGAAGAGUGCUUGCUUCGGUACAAAACGAUGAGGCGAAUGCAU: 0.574 ratio
CCCACGCCUCCUCUCCCACAGGCCCAAGAUAUAACCCACCAGUGCCUUUUGUCUUCCUGUCAGCUCUAAUCAAUCAUCCUGUCCUCUCACGCCCACACCAAGUGCCCAAAGUGGGGAGGG: 0.645 ratio
CGCUGGCCCAAGCUGAUGGACUCUGAUGGCCUCCAUCAAGGUAUUAUGUUUGCCUUCUCUUAGUCCCUGUUUUCGGGAUGUUAUGAAUCUCAGUACUGUGGUUUGAAAGCACCAGCUUUG: 0.142 ratio
UAAGUUAUUUUGUACAGCUUUGUAAAUUGUAUAGCUUUUUAUAUUGCCAUGUUUAUUUUGUUUGGGUAAUUUGGUUCAUUAAGUACAUAGCUAAGGUAAUGAACAUCUUUUUCAGUAAUU: 1.08 ratio
UUGAAAACUGAUUCAAGUAAGUUUGAGUAUCACAAUGUUAGCUUUCUAAUUCCAUAAAAGUACUUGGUUUUUACAGUUUAUAAUCUGCAAUCCAUCACCGUUUAUAAGUAAAGAGCAACU: 0.371 ratio
AACAGAUUGUCUUUAAGGUCAACGUAGGAGAAUGCUGGGGUGAUCAUUGUUGCCCAUGUGCCUUCUGACUGAGCUUUAAUGCUGUUCCAUGUUACAUCUUUCCUUCACUCCAGAAUUGUU: 0.119 ratio
UGUGCAUUAUGAUGCUUAGAUGGUUUUUGCAAAAGCAGAAAUCGCUGCAAGGUAAUCCUAAUAGAGAAAAGUGGUAUUUUAAACCUUUGAAAUAAAUGGAUGUAACUGUACCUUGGUACA: 1.53 ratio
UUGUCGAAGACUCAACGAAAGACUCCAACGGUUAUUCAUAAACAUUAUCAAAUUCAUCGGAUUCGACAUUUUUACAUGAGAAAAGUCAAAUUUACUCAACAGAAUUACCAUGACAGACUG: 0.208 ratio

Block 3 — technique: RNA Bind-n-Seq; form: RNA; medium: in vitro; concentration: 365 nM; baseline: no-protein control; reading: higher = stronger binding; measurement: RBNS enrichment (R)
Target: RNA binding protein fox-1 homolog 2, RRM domain, GST-SBP tag (RBFOX2, Homo sapiens, UniProt O43251-10, residues 100-194)
Notes: natural RNA segment, single round, ends assumed
Constant ends, left off below: GGGAGUUCUACAGUCCGACGAUC … UGGAAUUCUCGGGUGCCAA
Target sequence (chain): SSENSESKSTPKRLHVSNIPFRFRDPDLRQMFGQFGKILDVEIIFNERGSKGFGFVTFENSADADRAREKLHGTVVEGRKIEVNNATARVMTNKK
UAGAGGACAUCUCGGUCGUUUGAGGGGCAUGGCCAGUCGUGGCAGGCCGGCCUUCAGCGUCCGGUCAGGGAAGCGUGCAGCCCAAAUGGGCACUUGCAUGGGAGCCACAG: 0.847
AAGCUGCCAGUCUAAAUUCUAAAUAGUGUAUCUGAAAUCUCAGUUCCCAAAAUAGUUGUCAGGUUUAAUCAUCAGGCAACACUGCGUAUACCUGUGUGGCUAUCCUCAUC: 0.214
ACCAAAUUAUUUUAAGGUGCAUAGCACAAAGAUGUAUGCAAACAACUGUUUUAAAUCAGGUCUGAUAACUGAUUUAAAUAUAAAUAAUACUAGGAACAAGUAGUUUCCAU: 1.18
UAAAACAGUCACGAACCAAACCUGUGCAGUCCCUUGUUCCAGAUCACCUGGAACUGGAUUGGGAAGAGAACAGGACUUGGUGGCCAGGACCGCUCAGAGAGCCAUGGUUG: 0.166
UGCCCUGCAAAUUUGUUUCCCUUAAGGAACCCUCACCAACUAUCUCUGCUGGAUUUGGGAGUUCCGCAUCUUUUGUGGAGGGCAGAGUAUGGACAUCUUACACCCGGUGG: 0.402
AUGUCUAGAAUGGGCCAGCCACCUUGCAGUAAAAUCAAUGAGUUCUGAAGCAACCUUCAAUUUUCAUAAGCCAAGUCUUGGGUCCAGGGAACUCCACAGUGCUCCCACCC: 0.376
CUCGGCUUGUCCUUGUCCCAUGUGUUUGUAGACACACAUGCAUACUGUCCAAAGAUUAGGGUUGGUGGUGGCAGUGCAGCAGGGGAGGGACAAACAACCAAGCUAUGGGU: 1.06
GGGCCCACCAUCAGCCUGGACCUGGACGUGGAUGAUGUGGAGAUGGAGAACUAUGAGGCCCUCCUGAACCUGGCCGAGCGGCUGGGAGAUGCCAAGCCCCGGGGUCUCAC: 0.343
ACGCACGCUUUUCAUAAUUAACUGGUGCUUUGAAACCUUUCUUAUGGAAGAAAAAUCUCAACCAAAGUUAUGCUCUUCCUGACAAGCUGACCCUUGAGUUAAUUUUAGCA: 27.8
AGGUGUUGACAAGAUCCACCAUCUGUAAUGUCCUUGGCACAAUAAAACCAAAUGUCAGUUUCCCUGAGCAACUCUAUUCUGUGUGGGACACGGGUGGAUGGGCCUCUGGG: 0.327
GCCAGCCCAGGGGCCUUUACCAUGUUCUCUCCACAUCCGUAAAUAAACUUCCUUCACUACACUGUAAUCUGUGAGCAUGCUUCCUCUGCCCUGGCCUCUCUUGGGCCAAG: 1.35
UGUAGAAGAUGGACUCUGAAAAACAUUCCAGGAAACCAUGGCAGCAUGGAGAGCCUCUUAGUGAUUGUGUCUGCAUUGUUAUUGUGGAAGAUUUACCUUUUCUGUUGUAC: 0.389

Block 4 — technique: protein binding microarray; form: double-stranded DNA, one strand shown; medium: in vitro; concentration: not given; baseline: not given; reading: higher = stronger binding; measurement: E-score
Target: Histone acetyltransferase KAT6A, winged helix 2, GST fusion (KAT6A, Homo sapiens, UniProt Q92794, residues 85-181)
Notes: 8-mer, flanks averaged, mean of 2 arrays, mostly near background
Construct (chain): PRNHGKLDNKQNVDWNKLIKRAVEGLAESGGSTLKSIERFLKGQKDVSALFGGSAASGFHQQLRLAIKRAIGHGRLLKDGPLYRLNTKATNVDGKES
GTCGTGCA: -0.131
ACGTGTAA: -0.0658
CCTGCTAC: 0.152
AGAGTCAC: -0.0786
CTTCTGGA: 0.0783
GGTCTTTA: 0.134
AAGACTTA: -0.197
ACATCGAA: 0.00988
CCCGTTAC: -0.0139
CAGTTACA: -0.0825
CCATGCAG: -0.0489
AGGGAGAG: -0.126
CGGAAAGC: 0.172
AGGGACCC: 0.0204
CTGGTCCC: 0.0271
AACTGCCG: 0.221
AGAGTCAT: -0.277
ACCCAATG: -0.195
ATACAGTA: -0.13
CCCAAGAG: 0.0892
AAGGCAAA: 0.188
GTATCTTA: 0.142

A few entries again (block 1):
GUCCUGUGCUACACAUCGUAUGUACCGAAUCGGGAAAGGGUUUUUGGGAAAAAAAGGGAAAGUAUUAUGUUACGCCGUUCGGAUCUGCAC: -0.652
CACAGACAACACGCACCCACACAGACACAGAGGGAAGGGGUUGGGAUGGGGACAGGGUGCACAGCAGGGCGGGGUAGGACCACAGCCCCU: -0.307
UGGGAGGUGGAUUUUGUUUAUUUUUUUAGCUCAUUUCCAGGGGUGGGAAUUUUUUUUUAAUAUGUGUCAUGAAUAAAGUUGUUUUUGAAA: -0.324
UCAAGUCCUGUGCUACACAUCGUAUGUACCGAAUCGGUUUUUGGAAAAAGGAGGAAAGUAUUAUGUUACGCCGUUCGGAUCUGCACUUCC: 0.0424
GCAGGAAGUAAAAACAAAUGGAAAUGCUUCGGAAAGUGGCAGGGGUGGGGGUUGCUAAGGAAAGGGUGGGAUGGGAGUGGGUAAAGAGUU: 0.646
UAUUGAUGCAUUUGACCCUACACUGGCUCCAGCCACAGGAACUCCUGUUGUCGGGGGACUAACCUAUCGAGAAGGCAUGUAUAUUGCUGA: 0.334
UCAAGUCCUGUGCUACACAUCGUAUGUACCGAAUCGGGGAAGGGGAAGGAAGGGAAAGUAUUAUGUUACGCCGUUCGGAUCUGCACUUCC: -0.638
